Measured values of several laboratories.
Each line is one published result; not all experiments were run side by side. ± marks the error that the study gave. ≈ marks a conversion by molar mass, not a printed value.

For `CC[C@@H](C)[C@@H](NC(=O)[C@@H](C)NC(=O)[C@@H](CCCCN)NC(=O)[C@@H](CC(C)C)NC(=O)[C@@H](C)NC(=O)[C@H](NC(=O)[C@@H](Cc1c[nH]cn1)NC(=O)[C@@H](CC(C)C)NC(=O)[C@H](NC(=O)[C@H](NC(=O)[C@@H](CCCCN)NC(=O)[C@@H](CCCCN)NC(=O)[C@@H](C)NC(=O)[C@@H](CO)NC(=O)[C@@H](CCCCN)NC(=O)[C@@H](Cc1ccccc1)NC(=O)[C@H](NC(=O)[C@@H](CCCCN)NC(=O)[C@@H](CC(C)C)NC(=O)[C@@H](Cc1ccccc1)NC(=O)[C@@H](CO)NC(=O)[C@@H](CCCCN)NC(=O)[C@@H](Cc1c[nH]c2ccccc12)NC(=O)[C@@H](CCCCN)NC(C)=O)[C@H](C)O)[C@H](C)O)C(C)C)[C@H](C)O)C(=O)N[C@H](CO)C(=O)N[C@H](CO)C(N)=O`, the MIC90 was 12.5 µg/mL (≈ 4.18 µM) (Absidia corymbifera; clinical isolate; 48 h, 30 °C).
With `CC[C@H](C)[C@H](NC(=O)[C@H](CCCCN)NC(=O)[C@H](CCCCN)NC(=O)[C@H](CC(C)C)NC(=O)[C@H](CCCCN)NC(=O)[C@H](CCC(=O)O)NC(=O)[C@H](CCCCN)NC(=O)[C@@H](NC(=O)[C@H](CCCCN)NC(=O)[C@H](CC(N)=O)NC(=O)[C@H](CCCNC(=N)N)NC(=O)[C@H](Cc1ccccc1)NC(=O)[C@H](CCCCN)NC(=O)[C@H](CCCNC(=N)N)NC(=O)[C@H](CC(C)C)NC(=O)[C@H](CCCNC(=N)N)NC(=O)[C@H](CCCCN)NC(=O)[C@H](CCCNC(=N)N)NC(=O)[C@@H](N)CC(C)C)[C@@H](C)CC)C(=O)NCC(=O)N[C@@H](CCC(N)=O)C(=O)N[C@@H](CCCCN)C(=O)N[C@H](C(=O)N[C@@H](CCC(N)=O)C(=O)NCC(=O)N[C@@H](Cc1ccccc1)C(=O)N[C@H](C(=O)N1CCC[C@H]1C(=O)N[C@@H](CCCCN)C(=O)N[C@@H](CC(C)C)C(=O)O)C(C)C)[C@@H](C)CC` the lethal concentration was 1.75 µM (Streptococcus sanguinis; inhibition zone; ATCC 1.2497; LB agar, overnight).
`CC(C)C[C@H](NC(=O)[C@H](C)NC(=O)[C@H](CCCNC(=N)N)NC(=O)[C@H](CO)NC(=O)[C@H](Cc1ccc(O)cc1)NC(=O)[C@H](C)NC(=O)[C@H](CCCNC(=N)N)NC(=O)[C@H](CCCNC(=N)N)NC(=O)[C@H](CCCNC(=N)N)NC(=O)[C@H](CCC(N)=O)NC(=O)[C@H](CCCNC(=N)N)NC(=O)[C@H](CCCNC(=N)N)NC(=O)[C@H](CCCCN)NC(=O)[C@H](CCCCN)NC(=O)[C@@H](N)CCCNC(=N)N)C(=O)N[C@@H](C)C(=O)N[C@@H](CCCNC(=N)N)C(=O)N[C@@H](CCC(N)=O)C(=O)N[C@@H](CC(C)C)C(=O)N[C@@H](CO)C(=O)N[C@@H](CO)C(=O)O`: “VP1 protein level reduction” roughly 60% (enterovirus A71; western blot; RD; 50 µM, 2 h pretreatment then 9 h).
`CC(C)C[C@@H]1NC(=O)[C@H](CCCCN)NC(=O)[C@H](C(C)C)NC(=O)[C@@H]2CCCN2C(=O)[C@@H](Cc2ccc(O)cc2)NC(=O)[C@H](CC(C)C)NC(=O)[C@H](CCCCN)NC(=O)[C@H](C(C)C)NC(=O)[C@H](CCCCN)NC(=O)[C@H](CC(C)C)NC(=O)[C@H](CCCCN)NC(=O)[C@@H]2CCCN2C(=O)[C@@H](Cc2ccc(O)cc2)NC(=O)[C@H](CCCCN)NC(=O)[C@H](C(C)C)NC(=O)[C@H](CCCCN)NC1=O` — result for “MIC geometric mean”: 19.5 µg/mL (≈ 10.1 µM) (Gram-negative bacteria; 24 h, 7 strains).
The selectivity index of `C[C@H]1[C@H](C)CC[C@]2(CO)CC[C@]3(C)C(=CC[C@@H]4[C@@]5(C)CCCNC(C)(C)[C@@H]5CC[C@]43C)[C@H]12` is reported as 136 (Human cytomegalovirus; HFF, AD169; baseline: CC50 over EC50).
`CCn1c2ccccc2c2cc(/C=N/NC(=O)Cn3ccc(=O)c4ccccc43)ccc21` has an inhibition of 15.6% (Bipolaris maydis; microbial growth; 50 µg/mL).
`CCCCCCCCCCCCCC(=O)N[C@H](CCN)C(=O)N[C@H](C(=O)N[C@@H](CCN)C(=O)N[C@@H](CC(C)C)C(=O)N[C@H]1CCNC(=O)[C@H](CC(=O)O)NC(=O)[C@H](C(C)C)NC(=O)[C@@H](Cc2ccc(O)cc2)NC(=O)[C@H](CCN)NC(=O)[C@H](CC(C)C)NC(=O)[C@@H](Cc2ccccc2)NC1=O)[C@@H](C)O` — result for “MIC fold change with serum”: 4 fold (ESKAPE pathogens; concentration not given; baseline: MIC with serum over without).
`Cc1cn(C2CC(N(C)C)C(CO)O2)c(=O)[nH]c1=O` (stereo not shown) gave an EC50 of greater than 370 nM (respiratory syncytial virus; viral replication; HeLa).
`C/C=C/c1ccc(OC(C)=O)c(OC)c1` gave an antifeedant index of 65.4% (Spodoptera frugiperda; larvae; 500 µg/mL; baseline: untreated control).
The tissue uptake of `N=C(N)NCCC[C@@H]1NC(=O)[C@H](CCCCNC(=O)CC[C@H](NC(=O)CCOCCOCCOCCOCCNC(=O)CN2CCN(CC(=O)O)CCN(CC(=O)O)CCN(CC(=O)O)CC2)C(=O)NCCCC[C@@H]2NC(=O)[C@@H](Cc3ccccc3)NC(=O)[C@H](CC(=O)O)NC(=O)CNC(=O)[C@H](CCCNC(=N)N)NC2=O)NC(=O)[C@@H](Cc2ccccc2)NC(=O)[C@H](CC(=O)O)NC(=O)CNC1=O` [indium-111 labelled] is reported as 0.62 ± 0.22 %ID/g (female athymic nude mice, eyes; intravenous, 3 µCi, 4 h, U-87 MG glioma xenograft).
With `CC(=O)NC(Cc1ccc(Br)c(Cl)c1)C(=O)N[C@@H](C)C(=O)N1CCC[C@H]1C(=O)N1CCC[C@H]1C(=O)N[C@@H](CCC(=O)O)C(=O)N[C@@H](Cc1c[nH]cn1)C(=O)N[C@@H](CO)C(=O)N[C@H](C(=O)N[C@@H](C)C(N)=O)[C@@H](C)OP(=O)(O)O` (stereo partly shown) the inhibition was 3.73% (Casein kinase I isoform gamma-2 (CSNK1G2, Homo sapiens, UniProt P78368); enzyme activity, inhibitor; 10 µM).
`C=CCc1ccc(OCC(=C)C)c(OC)c1` gave an antifeedant index of 41.1% (Spodoptera frugiperda; larvae; 100 µg/mL; baseline: untreated control).
`CC1(C)NCCC[C@]2(C)[C@H]3CC=C4[C@@H]5C[C@@](C)(CO)CC[C@]5(C)CC[C@@]4(C)[C@]3(C)CC[C@@H]12` gave a selectivity index of less than 2 (Human alphaherpesvirus 1; HFF, E-377; baseline: CC50 over EC50).
`CN[C@@H]1[C@H](O)[C@H](NC)[C@H]2O[C@]3(O)[C@H](O[C@@H]2[C@H]1O)O[C@H](C)C[C@@]3(O)CNCc1ccc(F)cc1` — result for “bacterial titre reduction”: greater than 3 log units (Streptococcus pneumoniae; D39x, mice, pneumonia model; 2.5 or 5 mg/kg, 48 h post infection).
With `COc1ccc(-n2c(SCC#N)nnc2[C@H](Cc2ccccc2)NC(=O)Cc2c(C)[nH]c3ccccc23)cc1` the infection was 0.06 ± 0.01% (HIV-1 NL4-3; single-round infection; 5 µM, early stage; baseline: untreated).
The antifeedant index of `CCC1c2cc(OC)c(O)cc2C(c2ccc(O)c(OC)c2)C1C` (stereo not shown) is reported as 42.5% (Spodoptera frugiperda; larvae; 1000 µg/mL; baseline: untreated control).
`CC[C@@](C)(NC)C(=O)NC(C)(C)C(=O)NC(C)(C)C(=O)NC(C)(C)C(=O)NCC(=O)NC(C)(C)C(=O)N1CCC[C@@H]1C(=O)N[C@@H](Cc1c[nH]c2ccccc12)C(=O)NC(C)(C)C(=O)N1C[C@H](O)C[C@@H]1C(=O)N[C@@H](C)C(=O)NC(C)(C)C(=O)NCCCC(=O)N[C@@H](CC(C)C)C(=O)N[C@](C)(CC)C(=O)NC(C)(C)C(=O)N[C@](C)(CC)C(=O)N[C@H](CO)Cc1ccccc1`: antibacterial activity “no effect” (Gram-negative bacteria; concentration not given).
With `CN[C@](C)(C[18F])C(=O)O` the tracer uptake was 1.3 %ID/g (DU-145 tumour model; host not given, lung; 2 h, tumour-bearing).
The viability of `COC(=O)C1=CO[C@@H](OC(C)=O)[C@@H]2C(Cn3cc(C4(O)CCCC4)nn3)=CC[C@H]12` is reported as 63.4 ± 0.2% (SK-N-SH; neuroprotection, MTT; 0.6 µM, 24 h, with: 250 µM H2O2).
For `CC[C@H](C)[C@H](NC(=O)[C@H](CCSC)NC(=O)[C@H](CO)NC(=O)[C@H](C)NC(=O)CNC(=O)[C@@H](NC(=O)[C@@H](NC(=O)[C@H](CC(C)C)NC(=O)[C@H](CC(C)C)NC(=O)CNC(=O)CNC(=O)[C@H](C)NC(=O)[C@@H](NC(=O)CNC(=O)[C@H](CC(C)C)NC(=O)[C@H](CCC(N)=O)NC(=O)[C@H](CC(C)C)NC(=O)CNC(=O)[C@H](Cc1ccccc1)NC(=O)[C@H](CCCNC(=N)N)NC(=O)[C@H](C)N)[C@@H](C)O)[C@@H](C)O)[C@@H](C)CC)C(=O)N[C@@H](CCC(N)=O)C(=O)N[C@@H](CCCCN)C(=O)N[C@@H](CC(C)C)C(=O)O`, antibacterial activity read “active” (Gram-negative bacteria; MIC; concentration not given).
For `CC(=O)O[C@@H]1C[C@@H](C)O[C@H]2O[C@@H]3C[C@@H]4CC[C@@H]5[C@H](CC[C@]6(C)[C@@H](C7=CC(=O)OC7)CC[C@]56O)[C@@]4(C)C[C@H]3O[C@]21O`, the worm number was 7 ± 1.4 (Schistosoma mansoni; mouse, chronic infection; oral, 10 mg/kg single dose, males).
`CC(=O)c1c(O)c(C)c(O)c2c1OC1=CC(=O)/C3=C(/C)N[C@H](C(=O)O)CC1=CC=CC=C[C@@]2(C)C3=O` gave an MIC99 of 0.4 µM (≈ 0.197 µg/mL) (Candida tropicalis; broth microdilution; ATCC 750 fluconazole and amphotericin B resistant; 24 and 48 h).
The viability of `COC(=O)C1=CO[C@@H](OC(C)=O)[C@@H]2C(Cn3cc(CCBr)nn3)=CC[C@H]12` is reported as 61.9 ± 0.2% (SK-N-SH; neuroprotection, MTT; 0.6 µM, 24 h, with: 250 µM H2O2).
`N=C(N)NCCC[C@@H]1NC(=O)[C@H](CCCCNC(=O)CNC(=O)CNC(=O)CNC(=O)CC[C@H](NC(=O)CCOCCOCCOCCOCCNC(=O)CC[C@H](NC(=O)CN2CCN(CC(=O)O)CCN(CC(=O)O)CCN(CC(=O)O)CC2)C(=O)NCCOCCOCCOCCOCCC(=O)N[C@@H](CCC(=O)NCC(=O)NCC(=O)NCC(=O)NCCCC[C@@H]2NC(=O)[C@@H](Cc3ccccc3)NC(=O)[C@H](CC(=O)O)NC(=O)CNC(=O)[C@H](CCCNC(=N)N)NC2=O)C(=O)NCC(=O)NCC(=O)NCC(=O)NCCCC[C@@H]2NC(=O)[C@@H](Cc3ccccc3)NC(=O)[C@H](CC(=O)O)NC(=O)CNC(=O)[C@H](CCCNC(=N)N)NC2=O)C(=O)NCC(=O)NCC(=O)NCC(=O)NCCCC[C@@H]2NC(=O)[C@@H](Cc3ccccc3)NC(=O)[C@H](CC(=O)O)NC(=O)CNC(=O)[C@H](CCCNC(=N)N)NC2=O)NC(=O)[C@@H](Cc2ccccc2)NC(=O)[C@H](CC(=O)O)NC(=O)CNC1=O` [indium-111 labelled] has a tissue uptake of 1.33 ± 0.23 %ID/g (female athymic nude mice, eyes; intravenous, 3 µCi, 0.5 h, U-87 MG glioma xenograft).
Under “V1/2 of activation”, `CCN(Cc1ccccc1)C(=O)CCc1nc(CN2CCN(C(=O)Cc3ccc(OC)c(OC)c3)CC2)no1` is recorded as -44.8 ± 3.01 mV (Potassium voltage-gated channel subfamily KQT member 5 (KCNQ5, Homo sapiens, UniProt Q9NR82); whole-cell patch clamp; transfected cells; 100 nM).

For quick reference, copied from above:
For `CC(=O)O[C@@H]1C[C@@H](C)O[C@H]2O[C@@H]3C[C@@H]4CC[C@@H]5[C@H](CC[C@]6(C)[C@@H](C7=CC(=O)OC7)CC[C@]56O)[C@@]4(C)C[C@H]3O[C@]21O`, the worm number was 7 ± 1.4 (Schistosoma mansoni; mouse, chronic infection; oral, 10 mg/kg single dose, males).
`CC(=O)c1c(O)c(C)c(O)c2c1OC1=CC(=O)/C3=C(/C)N[C@H](C(=O)O)CC1=CC=CC=C[C@@]2(C)C3=O` gave an MIC99 of 0.4 µM (≈ 0.197 µg/mL) (Candida tropicalis; broth microdilution; ATCC 750 fluconazole and amphotericin B resistant; 24 and 48 h).
The viability of `COC(=O)C1=CO[C@@H](OC(C)=O)[C@@H]2C(Cn3cc(CCBr)nn3)=CC[C@H]12` is reported as 61.9 ± 0.2% (SK-N-SH; neuroprotection, MTT; 0.6 µM, 24 h, with: 250 µM H2O2).
